Experimental data gathered from unrelated publications.
A part holds a random share of what one study measured.

Study 1 — method: RNA Bind-n-Seq; form: RNA; medium: in vitro; tested at: 365 nM; reference: no-protein control; direction: higher = stronger binding
Target: RNA binding protein fox-1 homolog 2, RRM domain, GST-SBP tag (RBFOX2, Homo sapiens, UniProt O43251-10, residues 100-194)
Notes: natural RNA segment, single round, ends assumed
Residues (chain): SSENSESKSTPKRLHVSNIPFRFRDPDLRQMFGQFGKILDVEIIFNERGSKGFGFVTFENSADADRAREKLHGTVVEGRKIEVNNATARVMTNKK
| Sequence | RBNS enrichment (R) |
| --- | --- |
| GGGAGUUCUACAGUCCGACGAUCGACUUCUCAGUGUUGGUGCUGUGUCUGUUAGAGCCUUAGAGCAAGUUAAGCACUUCCUUGGUGUGGGUAAAGAAUAAAGGGGAAAGAAACUACUUUAGAGCCUCUUUUUCUGGAAUUCUCGGGUGCCAA | 0.777 |
| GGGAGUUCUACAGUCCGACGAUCUUUUUUUAAUUUAAGAUUUUUAAGCAGAUUAGGACAGGUGGUGGUUGUAUUGUAAGUGGCACUGGGAACCCAGGGUUUCCUUGGGAGUUGAGGCCUUCUUUAUUCCUGCUUGGAAUUCUCGGGUGCCAA | 0.644 |
| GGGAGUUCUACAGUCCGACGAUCGUGCUAAUAUUAGCUGCAUUUCCUGCAGGGCAGGGAUGCGACCUUGCACAUGCUAGGCAAGCUCUCUACCCUGAGCUACGUACAUCCUAGCCCUUAGAACUACCACCCUGUGGAAUUCUCGGGUGCCAA | 0.339 |
| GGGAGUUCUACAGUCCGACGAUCAGCUGCAGCCAUUGGAAGAAACCUGUUACCUGAAUGCGAUUUCCUCCAUUUUCUCAACAGCUGGAGGCCUCUCAGGCACCAUCGCUCGAGUGGCUGCUGGCUCUCAAGCUUGGAAUUCUCGGGUGCCAA | 0.305 |
| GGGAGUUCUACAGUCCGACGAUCUAUAUUAUGGAGAAAGCAAAACCCUGCAAAUGACCAAAUGGUGUCCAAAGAGCAGCAUGACAUUGGCAUCAGCUGAAUAACCAGGGGCACAUGGGGGAACGUGGAUGGGAUGGAAUUCUCGGGUGCCAA | 14.1 |
| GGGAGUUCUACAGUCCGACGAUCUUGUUGAAUUUUGUCAAAGGCUUUUUCUGCAUCUAUUGAGAUAAUCAUGUGUUUUUUGUCUUUGGCUCUGUUUAUAUGCUGGAUUACAUUCAUUGAUUUGCGUAUAUUGAUGGAAUUCUCGGGUGCCAA | 0.743 |
| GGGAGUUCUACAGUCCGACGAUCCUCCACAGACAAGAAGUGCAUUGCCAGAAGAGCAUCACUGAACGGAGCGGAGGGAGGACCAGUUGCAUGUGUUUCUGCCCACUCAUUUUGAGCAGCCAUAUUAUAAAAUGUGGAAUUCUCGGGUGCCAA | 1.89 |
| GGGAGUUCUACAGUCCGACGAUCACUUUUUGGUGGCAUUUGUAAAAGCUGAUAUAAAAGGCUCUGAGAUGUUAUUUUCAGUUAUUCCAUAGGCAAGCCUUUUUACAGAGCAUAUGUCUCCAGUUGGCAGCUUGUGGAAUUCUCGGGUGCCAA | 0.671 |
| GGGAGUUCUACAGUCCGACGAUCAAAUUCUUGGGCAUUUAUCUUUUAAAACUUCACUAAUAUAGCAUUGUGUGAUAAGCACUAAGCAGUCAGUCCCCUGGGGGAAUCUGGCAUAAUUCGGCUAUAAAUGUAGCUGGAAUUCUCGGGUGCCAA | 0.529 |
| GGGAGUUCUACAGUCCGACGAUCAAAUUGCUUGUCUAUAGUUGUCUGCAGUACUGUAUGAUUUUACCCAUGUGCAAUUUGUAAAAUGAACCAGAUGUCACUACUUUUGUCUUUAUUUCAAGAAUAUGGCCAUCUGGAAUUCUCGGGUGCCAA | 1.25 |
| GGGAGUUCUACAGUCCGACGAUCUCUUUCUCCAGGUGGGAUGUAGCACCCCGAAGUAGAGCUUUCUGCUCUGCUCCUGGAAAAGGCUAGGGAGCUGGGGCUGGGGCUCCCCUCCCAUGACCAGGCAGUGGUCAUGGAAUUCUCGGGUGCCAA | 0.257 |
| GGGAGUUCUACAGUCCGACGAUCACUCAAAUCAGCUGGCUAUUUGAAGAUGGCAAAGAAUAUAGUUCUGAAAUUUUAUUUUUCCACAACAGGGUGAUUGGCAGUGGUUGUUCUCCCUUUUUCUGACAGUGUGGUGGAAUUCUCGGGUGCCAA | 0.954 |

Study 2 — method: competition protein-binding microarray; form: double-stranded DNA, one strand shown; medium: in vitro; tested at: 2 µM; together with: Cbf1 competitor, 0.05 µM; direction: higher = stronger binding
Target: Phosphate system positive regulatory protein PHO4, full length, GST-tagged (PHO4, Saccharomyces cerevisiae, UniProt P07270, residues 1-312)
Notes: whole 60-bp probe, lowest competitor level
Residues (chain): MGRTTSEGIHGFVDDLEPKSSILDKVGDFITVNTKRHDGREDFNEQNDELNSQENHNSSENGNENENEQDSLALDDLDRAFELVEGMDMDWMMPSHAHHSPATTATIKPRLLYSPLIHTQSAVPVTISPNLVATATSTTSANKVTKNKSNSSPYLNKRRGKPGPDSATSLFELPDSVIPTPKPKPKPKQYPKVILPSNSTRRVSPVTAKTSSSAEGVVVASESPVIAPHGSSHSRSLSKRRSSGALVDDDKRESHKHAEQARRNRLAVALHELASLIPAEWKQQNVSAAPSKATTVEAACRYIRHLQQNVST
| Sequence | fluorescence intensity [a.u.] |
| --- | --- |
| GCCGGACCAGCTTGGCCCGTGGAATTGTCTATATTGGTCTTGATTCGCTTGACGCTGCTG | 5260 |
| TGCGCAACAACTTGGTAGGTGGGTGTATGTCTAGAAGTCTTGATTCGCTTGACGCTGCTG | 4770 |
| TCCACCAACGATGGGTCCGTGACGAATGGTTCAACGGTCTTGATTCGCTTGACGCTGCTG | 4970 |
| AAAGCGGTAATTTGTCACCCGACTTCACATATCTATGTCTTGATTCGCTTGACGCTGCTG | 3210 |
| GTCTTGTCTCATTTTCACGTGCTGTTCCCCACTTCAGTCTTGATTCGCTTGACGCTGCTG | 13600 |
| TGCGCAACAACTTGAGGGGTGGGTGTATGTCTAGAAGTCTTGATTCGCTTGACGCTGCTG | 5020 |
| CATATGGAGCATTTGCACGGGCCCTCAGGATAGAAGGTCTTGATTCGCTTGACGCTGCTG | 9210 |
| AAATTACTAAGTTTTCACGTGTGTTACCCCGTATGAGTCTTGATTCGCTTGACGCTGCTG | 12600 |
| CGAGCCTCTGAAAAGCACGCTCTAATAATTTTACATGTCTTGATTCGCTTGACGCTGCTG | 9050 |
| AAAGCGGTAATTTGGGGTGTGGGTGCAGATATCTATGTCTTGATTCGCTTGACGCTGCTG | 7540 |
| CTTCTGTAAATTTTTCACGTGGGCTGACGCGCCCCGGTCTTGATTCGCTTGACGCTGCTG | 13700 |
| AAAGCGGTAATTTGCTTAGTGGGTGCAGATATCTATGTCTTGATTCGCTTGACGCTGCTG | 3740 |
| CTAACGAAGGTTTGGCTAGTGGGTGACAAGCCAAGTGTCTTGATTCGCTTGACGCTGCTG | 3410 |
| TTAGTGCAAGAGGCACACATGCAGATTATGCATCAGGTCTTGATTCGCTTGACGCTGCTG | 8600 |
| CTCTTTCAGATTCGTCACGATTTTATGAAAGAAATAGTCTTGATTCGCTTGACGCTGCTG | 6260 |
| CTTGGTGAAAATGGTAACGTGACTCGGTGTTGTTTTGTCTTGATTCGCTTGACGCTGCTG | 8210 |
| GTCTTAATAGAAGGACACGTGGAATCTAAGGACGGAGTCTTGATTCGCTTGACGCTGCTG | 17800 |

Study 3 — method: protein binding microarray; form: double-stranded DNA, one strand shown; medium: in vitro; tested at: not given; reference: not given; direction: higher = stronger binding
Target: Histone acetyltransferase KAT6A, winged helix 2, GST fusion (KAT6A, Homo sapiens, UniProt Q92794, residues 85-181)
Notes: 8-mer, flanks averaged, mean of 2 arrays, mostly near background
Target sequence (chain): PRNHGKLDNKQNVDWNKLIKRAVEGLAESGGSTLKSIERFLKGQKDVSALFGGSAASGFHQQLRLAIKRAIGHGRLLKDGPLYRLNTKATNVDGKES
| Sequence | E-score |
| --- | --- |
| ATTGCGCC | 0.0436 |
| ATCGGGGA | -0.0386 |
| GCCGACAA | 0.111 |
| TCACCCCA | -0.11 |
| GAGCATAA | 0.049 |
| GCTACGCA | 0.126 |
| ACGATAGA | -0.158 |
| GCTAGACA | 0.051 |
| CTGACATA | -0.0225 |
| AGGGTCTA | -0.17 |
| ATTATACG | 0.0708 |
| CAGGCAGA | 0.0356 |
| TCACGCCA | 0.0359 |
| ATACTTAC | 0.0121 |
| CAATTAGC | 0.0906 |
| CCGGCTAG | 0.146 |
| ACCCCCGA | -0.101 |
| GTACCTAA | -0.15 |
| GACCAGTC | -0.184 |
| CACCACCC | 0.0152 |
| CCCAGCAC | -0.0374 |

Study 4 — method: protein-binding microarray; form: double-stranded DNA, one strand shown; medium: in vitro; tested at: 250 nM; notes: 60-bp whole probe; together with: salmon DNA 0.4 mg/ml; reference: random background probes; direction: higher = stronger binding; constant ends, left off below: GCCTAGCAC … GTCTTGATTCGCTTGACGCTGCTG
Target: Interferon regulatory factor 7, full length, phosphomimetic (IRF7, Homo sapiens, UniProt Q92985, residues 1-503, S101K/S471D/S472D/S475D/S476D/S477D/S483D/S484D/S487D)
Residues (chain): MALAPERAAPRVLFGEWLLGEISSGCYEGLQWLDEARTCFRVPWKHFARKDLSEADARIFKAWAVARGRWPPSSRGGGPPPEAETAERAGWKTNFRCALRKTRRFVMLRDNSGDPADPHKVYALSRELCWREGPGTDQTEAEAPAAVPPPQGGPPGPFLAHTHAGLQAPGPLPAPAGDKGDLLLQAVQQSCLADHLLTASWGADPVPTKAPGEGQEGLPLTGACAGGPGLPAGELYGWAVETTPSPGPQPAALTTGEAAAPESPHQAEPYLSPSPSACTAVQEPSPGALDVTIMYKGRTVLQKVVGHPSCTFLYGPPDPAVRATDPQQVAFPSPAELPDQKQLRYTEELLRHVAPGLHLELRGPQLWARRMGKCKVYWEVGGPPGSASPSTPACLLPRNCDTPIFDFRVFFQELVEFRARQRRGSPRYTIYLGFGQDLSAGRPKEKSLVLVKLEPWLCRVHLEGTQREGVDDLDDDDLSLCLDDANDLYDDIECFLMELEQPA
| Sequence | log fluorescence |
| --- | --- |
| CAGCCGCACAGCATGAGTTCGTGCTAG | -1.06 z-score |
| GACGATTTCAGACTGGAGGCGTGCTAG | 0.173 z-score |
| GGCGATTTCAGACTGGAGACGTGCTAG | -0.666 z-score |
| GACGATCCCAGACTGGAGACGTGCTAG | -0.259 z-score |
| TTAGTTATCCTTCTCCTTTAGTGCTAG | 0.76 z-score |
| TTAGGCATCCTTATCCTTTAGTGCTAG | -0.392 z-score |
| CTAATATTCTGCTTTGCAATGTGCTAG | 1.47 z-score |
| TTAGAACTGTGTATCGATTAGTGCTAG | 0.102 z-score |
| TTAGGACTGCTTCTCATTTAGTGCTAG | 0.752 z-score |
| TTAGATCTCCGTCTCGATTAGTGCTAG | 0.358 z-score |
| TTAGTTATCAGTCTCGATTAGTGCTAG | 1.86 z-score |
| TCAGCTTTCCTTTGCTTACTGTGCTAG | 0.53 z-score |
| GACGGACAGGGGTTTCGGGACGTGCTA | 1.11 z-score |
| TCAAGACTCATAATGGCACTGTGCTAG | 0.12 z-score |
| TCATCTTTGCTCATTTTTACTGTGCTA | 0.688 z-score |
| GACGGTTTCCTTTTCCAGACGTGCTAG | 6.14 z-score |
| TTAGATATCGAGTTTCGATTAGTGCTA | 7.24 z-score |
| GACGGTTTCGGGACTGGCGACGTGCTA | 4.03 z-score |
| TTAAATTTTAATAACACAGAGTGCTAG | -0.212 z-score |
| TTATGTTTCCTTTTCCTTTAGTGCTAG | 4.49 z-score |
| TTAGATATCGGGTTTCTATTAGTGCTA | 2.06 z-score |
| TCAGTTTTTATTTTCTGACTGTGCTAG | 1.34 z-score |
| GACGGACTGGGGTATCGGGCCGTGCTA | -1.18 z-score |
| GACGCACTGAGACTGGAGACGTGCTAG | -0.233 z-score |
| TTCGGTATCGACACTGGGTTAGTGCTA | -0.129 z-score |
